# Published values collected from several papers.
# The chains behind the UniProt entries cited, without tags or fusion partners. Where a name states a change or a piece, a line headed by the entry shows the natural chain unless it says otherwise. Residues count along the entry.
# UniProt P03372, whole entry: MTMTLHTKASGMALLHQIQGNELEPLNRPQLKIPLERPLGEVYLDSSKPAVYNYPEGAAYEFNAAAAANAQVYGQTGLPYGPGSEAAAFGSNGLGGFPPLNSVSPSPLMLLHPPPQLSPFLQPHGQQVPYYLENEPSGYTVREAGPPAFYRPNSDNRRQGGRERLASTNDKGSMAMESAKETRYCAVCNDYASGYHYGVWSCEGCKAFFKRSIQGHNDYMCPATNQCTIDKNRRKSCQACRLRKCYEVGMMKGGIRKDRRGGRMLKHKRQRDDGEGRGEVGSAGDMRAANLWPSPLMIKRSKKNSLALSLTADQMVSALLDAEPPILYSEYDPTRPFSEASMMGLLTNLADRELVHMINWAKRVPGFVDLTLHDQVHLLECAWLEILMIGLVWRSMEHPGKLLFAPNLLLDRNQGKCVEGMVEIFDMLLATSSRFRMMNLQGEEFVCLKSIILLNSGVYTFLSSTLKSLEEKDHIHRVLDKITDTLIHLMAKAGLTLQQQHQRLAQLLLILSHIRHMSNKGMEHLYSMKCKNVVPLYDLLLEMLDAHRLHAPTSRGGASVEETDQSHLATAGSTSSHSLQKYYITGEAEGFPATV
# UniProt P14902, whole entry: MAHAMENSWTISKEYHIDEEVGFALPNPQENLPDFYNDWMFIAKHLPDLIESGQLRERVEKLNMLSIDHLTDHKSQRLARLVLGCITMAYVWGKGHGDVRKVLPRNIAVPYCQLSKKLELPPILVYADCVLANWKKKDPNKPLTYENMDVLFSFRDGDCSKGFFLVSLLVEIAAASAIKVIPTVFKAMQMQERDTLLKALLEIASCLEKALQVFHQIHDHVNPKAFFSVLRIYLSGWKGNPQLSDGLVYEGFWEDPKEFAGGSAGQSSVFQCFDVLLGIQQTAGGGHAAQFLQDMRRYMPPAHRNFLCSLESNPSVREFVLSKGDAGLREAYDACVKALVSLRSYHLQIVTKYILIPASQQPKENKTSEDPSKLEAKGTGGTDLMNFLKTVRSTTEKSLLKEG
# UniProt P26038, whole entry, looked up: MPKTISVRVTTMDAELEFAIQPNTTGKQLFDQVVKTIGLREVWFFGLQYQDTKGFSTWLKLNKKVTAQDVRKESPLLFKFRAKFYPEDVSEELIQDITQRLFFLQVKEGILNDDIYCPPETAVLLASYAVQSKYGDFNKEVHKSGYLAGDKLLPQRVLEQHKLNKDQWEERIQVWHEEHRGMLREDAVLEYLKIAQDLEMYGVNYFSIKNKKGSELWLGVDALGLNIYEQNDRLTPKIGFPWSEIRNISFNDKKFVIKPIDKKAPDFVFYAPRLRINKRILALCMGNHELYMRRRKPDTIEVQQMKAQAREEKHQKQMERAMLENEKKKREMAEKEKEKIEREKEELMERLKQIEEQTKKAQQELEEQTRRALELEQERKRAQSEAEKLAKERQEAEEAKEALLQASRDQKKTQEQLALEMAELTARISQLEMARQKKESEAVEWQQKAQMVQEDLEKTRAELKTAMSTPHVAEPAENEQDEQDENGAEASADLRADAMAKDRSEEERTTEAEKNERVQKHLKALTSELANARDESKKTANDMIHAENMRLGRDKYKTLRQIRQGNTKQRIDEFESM
# UniProt Q8N884, whole entry: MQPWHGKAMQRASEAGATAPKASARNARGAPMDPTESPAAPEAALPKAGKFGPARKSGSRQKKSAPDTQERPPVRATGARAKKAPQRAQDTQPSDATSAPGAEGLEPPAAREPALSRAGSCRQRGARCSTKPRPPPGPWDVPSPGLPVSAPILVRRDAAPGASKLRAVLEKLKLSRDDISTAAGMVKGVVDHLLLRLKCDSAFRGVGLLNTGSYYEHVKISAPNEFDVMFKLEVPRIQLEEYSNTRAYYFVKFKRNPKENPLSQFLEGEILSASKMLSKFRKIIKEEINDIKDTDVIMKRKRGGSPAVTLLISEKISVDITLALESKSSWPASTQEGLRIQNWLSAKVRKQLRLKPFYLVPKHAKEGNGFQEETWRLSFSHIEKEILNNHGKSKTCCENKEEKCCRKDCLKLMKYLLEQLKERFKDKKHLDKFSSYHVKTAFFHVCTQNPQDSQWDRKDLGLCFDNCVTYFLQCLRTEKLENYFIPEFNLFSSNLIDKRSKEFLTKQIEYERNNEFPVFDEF
# UniProt Q9UHC9, 22-1359 limits assumed: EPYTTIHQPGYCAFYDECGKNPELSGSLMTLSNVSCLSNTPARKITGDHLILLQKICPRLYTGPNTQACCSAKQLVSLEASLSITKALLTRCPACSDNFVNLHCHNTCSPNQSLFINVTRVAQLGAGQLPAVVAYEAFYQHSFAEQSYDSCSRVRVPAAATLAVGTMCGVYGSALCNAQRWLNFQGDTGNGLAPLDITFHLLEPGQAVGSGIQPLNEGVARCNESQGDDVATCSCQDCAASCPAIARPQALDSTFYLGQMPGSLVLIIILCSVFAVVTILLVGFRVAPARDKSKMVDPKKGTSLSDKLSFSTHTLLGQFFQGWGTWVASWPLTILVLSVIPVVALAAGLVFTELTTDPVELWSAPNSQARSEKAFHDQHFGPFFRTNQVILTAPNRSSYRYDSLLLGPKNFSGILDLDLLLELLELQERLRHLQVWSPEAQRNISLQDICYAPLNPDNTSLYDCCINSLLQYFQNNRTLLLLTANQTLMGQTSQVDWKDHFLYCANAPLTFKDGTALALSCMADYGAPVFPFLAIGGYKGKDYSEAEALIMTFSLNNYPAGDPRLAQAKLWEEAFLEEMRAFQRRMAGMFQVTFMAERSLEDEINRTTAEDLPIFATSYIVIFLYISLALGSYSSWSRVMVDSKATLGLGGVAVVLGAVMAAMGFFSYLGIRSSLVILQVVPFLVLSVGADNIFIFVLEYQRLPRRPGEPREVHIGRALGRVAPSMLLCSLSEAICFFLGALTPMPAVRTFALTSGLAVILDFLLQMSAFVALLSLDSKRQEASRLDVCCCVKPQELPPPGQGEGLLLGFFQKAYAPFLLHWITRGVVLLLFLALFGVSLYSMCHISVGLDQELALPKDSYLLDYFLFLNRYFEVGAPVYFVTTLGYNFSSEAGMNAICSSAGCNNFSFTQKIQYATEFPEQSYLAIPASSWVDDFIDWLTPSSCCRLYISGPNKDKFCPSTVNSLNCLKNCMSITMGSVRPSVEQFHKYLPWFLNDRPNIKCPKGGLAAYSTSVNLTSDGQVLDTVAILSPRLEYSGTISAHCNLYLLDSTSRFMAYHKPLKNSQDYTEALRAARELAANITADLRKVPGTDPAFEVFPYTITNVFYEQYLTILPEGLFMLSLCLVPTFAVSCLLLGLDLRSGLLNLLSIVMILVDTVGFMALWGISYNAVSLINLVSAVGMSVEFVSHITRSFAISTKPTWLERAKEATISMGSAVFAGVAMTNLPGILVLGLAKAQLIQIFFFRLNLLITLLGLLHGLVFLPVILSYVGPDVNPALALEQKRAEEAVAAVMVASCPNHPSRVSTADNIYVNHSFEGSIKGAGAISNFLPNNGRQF
# UniProt A4HTR0, 1-443: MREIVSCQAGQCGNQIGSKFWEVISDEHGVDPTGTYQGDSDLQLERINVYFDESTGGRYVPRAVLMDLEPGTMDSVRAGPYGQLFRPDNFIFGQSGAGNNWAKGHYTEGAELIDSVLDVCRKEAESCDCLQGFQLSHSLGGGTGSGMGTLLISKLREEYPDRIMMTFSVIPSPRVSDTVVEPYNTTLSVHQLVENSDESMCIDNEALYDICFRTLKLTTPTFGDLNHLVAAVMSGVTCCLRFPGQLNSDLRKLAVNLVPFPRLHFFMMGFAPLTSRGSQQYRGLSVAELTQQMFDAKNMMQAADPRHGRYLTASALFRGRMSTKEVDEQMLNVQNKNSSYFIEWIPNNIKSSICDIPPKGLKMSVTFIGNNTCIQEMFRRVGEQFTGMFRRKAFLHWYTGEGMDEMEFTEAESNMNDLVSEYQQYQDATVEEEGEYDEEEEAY
# UniProt Q14416, 19-872 limits assumed: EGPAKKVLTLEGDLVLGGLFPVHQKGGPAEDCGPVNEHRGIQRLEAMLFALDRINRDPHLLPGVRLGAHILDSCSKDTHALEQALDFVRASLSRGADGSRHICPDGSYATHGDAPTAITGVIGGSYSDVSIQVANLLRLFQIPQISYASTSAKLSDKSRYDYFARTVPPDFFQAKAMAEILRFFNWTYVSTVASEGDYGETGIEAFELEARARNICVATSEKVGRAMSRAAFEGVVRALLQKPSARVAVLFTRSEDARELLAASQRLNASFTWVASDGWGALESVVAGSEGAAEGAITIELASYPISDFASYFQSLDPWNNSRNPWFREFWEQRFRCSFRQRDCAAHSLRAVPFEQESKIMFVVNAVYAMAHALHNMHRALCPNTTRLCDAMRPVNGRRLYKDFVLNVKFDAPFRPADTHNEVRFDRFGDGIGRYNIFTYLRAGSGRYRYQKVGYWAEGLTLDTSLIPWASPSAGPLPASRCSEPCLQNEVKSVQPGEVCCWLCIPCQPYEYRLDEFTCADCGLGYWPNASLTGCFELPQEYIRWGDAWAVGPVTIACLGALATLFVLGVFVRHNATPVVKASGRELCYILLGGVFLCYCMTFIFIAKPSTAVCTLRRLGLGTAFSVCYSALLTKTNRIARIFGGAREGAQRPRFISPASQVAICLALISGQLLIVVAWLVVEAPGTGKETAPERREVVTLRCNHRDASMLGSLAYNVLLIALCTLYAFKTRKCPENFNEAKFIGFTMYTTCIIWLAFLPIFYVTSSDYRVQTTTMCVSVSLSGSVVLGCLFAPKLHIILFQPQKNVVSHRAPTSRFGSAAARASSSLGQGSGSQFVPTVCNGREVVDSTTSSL
# UniProt P10747, whole entry, looked up: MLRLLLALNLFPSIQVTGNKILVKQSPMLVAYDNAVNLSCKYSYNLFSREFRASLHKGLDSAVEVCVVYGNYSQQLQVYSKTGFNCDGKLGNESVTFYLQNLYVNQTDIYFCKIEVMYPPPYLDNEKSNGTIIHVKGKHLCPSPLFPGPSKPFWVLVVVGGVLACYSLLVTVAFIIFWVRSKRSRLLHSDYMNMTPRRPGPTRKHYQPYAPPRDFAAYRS
# UniProt Q07812, whole entry: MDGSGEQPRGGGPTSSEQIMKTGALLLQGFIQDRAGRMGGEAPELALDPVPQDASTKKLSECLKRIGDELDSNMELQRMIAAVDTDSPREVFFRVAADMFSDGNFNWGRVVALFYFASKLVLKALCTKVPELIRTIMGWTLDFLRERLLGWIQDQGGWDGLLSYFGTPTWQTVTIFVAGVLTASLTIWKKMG
# UniProt P05067, 672-713 limits assumed: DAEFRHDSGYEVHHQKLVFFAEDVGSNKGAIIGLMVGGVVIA
# UniProt Q13164, whole entry: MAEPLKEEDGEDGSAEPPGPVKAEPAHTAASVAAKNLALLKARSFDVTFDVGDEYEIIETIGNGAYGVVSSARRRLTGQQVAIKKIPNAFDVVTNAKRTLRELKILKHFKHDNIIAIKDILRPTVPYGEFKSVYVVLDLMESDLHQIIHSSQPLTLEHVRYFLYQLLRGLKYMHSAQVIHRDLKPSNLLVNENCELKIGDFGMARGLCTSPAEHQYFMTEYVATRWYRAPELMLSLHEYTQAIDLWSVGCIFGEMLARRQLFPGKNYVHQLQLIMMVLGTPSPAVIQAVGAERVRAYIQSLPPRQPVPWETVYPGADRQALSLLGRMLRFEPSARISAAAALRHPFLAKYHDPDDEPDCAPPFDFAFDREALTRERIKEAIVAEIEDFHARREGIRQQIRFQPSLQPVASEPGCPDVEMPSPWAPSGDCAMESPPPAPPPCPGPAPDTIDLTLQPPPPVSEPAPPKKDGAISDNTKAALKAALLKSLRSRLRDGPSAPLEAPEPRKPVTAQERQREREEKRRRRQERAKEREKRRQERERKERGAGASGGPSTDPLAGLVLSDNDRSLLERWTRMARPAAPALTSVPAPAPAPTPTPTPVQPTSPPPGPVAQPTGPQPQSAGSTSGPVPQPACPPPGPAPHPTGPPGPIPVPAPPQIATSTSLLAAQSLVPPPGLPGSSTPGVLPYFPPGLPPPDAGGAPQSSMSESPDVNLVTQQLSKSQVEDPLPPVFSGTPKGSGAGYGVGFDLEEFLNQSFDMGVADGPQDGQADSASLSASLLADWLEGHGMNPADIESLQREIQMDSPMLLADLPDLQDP
# UniProt O95551, whole entry: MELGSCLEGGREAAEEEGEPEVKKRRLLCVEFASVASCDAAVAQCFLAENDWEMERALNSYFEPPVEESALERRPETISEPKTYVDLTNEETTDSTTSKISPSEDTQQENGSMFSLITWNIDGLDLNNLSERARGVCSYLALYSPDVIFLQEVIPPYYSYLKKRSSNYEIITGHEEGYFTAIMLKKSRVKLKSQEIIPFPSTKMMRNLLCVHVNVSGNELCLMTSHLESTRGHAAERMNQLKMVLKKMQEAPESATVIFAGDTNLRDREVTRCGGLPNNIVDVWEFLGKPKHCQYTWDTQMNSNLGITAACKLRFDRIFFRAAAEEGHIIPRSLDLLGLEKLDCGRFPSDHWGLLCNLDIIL
# Protocols differ between the studies behind these lines. “And” joins repeats or separate records; there may be more than shown. ± marks the error that the study gave.
# ESR1: Estrogen receptor (ESR1, Homo sapiens, UniProt P03372)
# IDO1: Indoleamine 2,3-dioxygenase 1 (IDO1, Homo sapiens, UniProt P14902)
# Moesin with CD44: Moesin, with CD44 (Homo sapiens, UniProt P26038)
# Grm2: Metabotropic glutamate receptor 2 (Grm2, Rattus norvegicus, UniProt P31421)
SMILES,target,assay,system,setting,IC50
CC1(C)C(=S)Nc2ccccc21,"CA2 (Homo sapiens, UniProt P00918)",inhibitor,,,> 200 µM
CC(C)CNC(=O)CSc1nc2ccc(NC(=O)CSc3ccc(Br)cc3)cc2s1,ESR1,"reporter gene, antagonist",HEC-1 transfected ERα luciferase reporter,,> 50 µM
CCCCCCCCCCCCCCCCNNC(=O)c1ccc(N(C)C)cc1,"HDAC11 (Homo sapiens, UniProt Q96DB2)","enzyme activity, inhibitor",,together with: myristoyl-SHMT2 peptide,1 µM
[2H]c1c([2H])c(S(=O)(=O)N2CCC(C)(C(=O)Nc3ccc4cc(C(=O)O)ccc4c3)CC2)c(C([2H])([2H])[2H])c([2H])c1C([2H])([2H])[2H],"FAAH (Homo sapiens, UniProt O00519)",,,"pH 8, 37 °C, together with: OMP substrate 50 µM",56 µM
CCOc1ccc(S(=O)(=O)NC(=O)Cc2ccc(I)cc2)cc1Br,"CGAS (Homo sapiens, UniProt Q8N884)","enzyme activity, inhibitor, Kinase-Glo ATP depletion",,"25 °C, 100 nM enzyme",0.666 µM and 0.66 µM
"CS(=O)(=O)NCC#Cc1ccc(N2C(=O)[C@H](CC[C@H](O)c3ccc(F)cc3)[C@H]2c2ccc(O[C@@H]3O[C@H](C(=O)O)[C@@H](O)[C@H](O)[C@H]3O)cc2)cc1 (single isomer, unassigned)","NPC1L1 (Homo sapiens, UniProt Q9UHC9)","cholesterol uptake, inhibitor",MDCK-II expressing human NPC1L1,together with: [3H]cholesterol,0.0502 µM
COc1cc([C@@H]2c3cc4c(cc3[C@@H](OC(C)C)[C@H]3COC(=O)[C@H]23)OCO4)cc(OC)c1OC,"Tubulin alpha/beta heterodimer (Leishmania infantum, UniProt A0A381MCS3+A4HTR0)","tubulin polymerization, inhibitor",,"37 °C, together with: tubulin 1.2 mg/mL",8.8 ± 4.5 µM
O=C(O)CC[C@H](NC(=O)c1cc(C(=O)O)cc([C@H]2CCN[C@@H]2C(=O)O)c1)C(=O)O,AMPA receptor (rat),"binding, radioligand binding",rat cortical synaptosomes,together with: [3H]AMPA,10 to 50 µM
O=C(CCCn1c(=S)[nH]c2ccccc2c1=O)N1CCN(c2ccc(Cl)cc2)CC1,ESR1,"reporter gene, antagonist",HEC-1 cells transfected with ERα,together with: estradiol 1 nM,7.1 µM
CSc1cc(NC(=O)c2ccccn2)ccc1Cl,"GRM2 (Homo sapiens, UniProt Q14416)",antagonist,,,> 30 µM
O=[N+]([O-])c1ccc(/C=C/c2c[nH]c3ccc(F)cc23)c(F)c1,IDO1,"enzyme activity, inhibitor",,,> 100 µM
O=C(O)c1cc(C(=O)N2CCC[C@H]2C(=O)O)cc([C@H]2CCN[C@@H]2C(=O)O)c1,"Glutamate receptor ionotropic, NMDA 2D, with GluN1 (Rattus norvegicus, UniProt Q62645)","ion current, antagonist, two-electrode voltage clamp",Xenopus oocytes,"GluN1/GluN2D, together with: glycine 100 µM and glutamate 1 µM",34.8 ± 12.2 µM
CCOc1ccccc1Nc1nnc(SCC(=O)Nc2cc(F)ccc2F)s1,"CD28, with CD80 (Homo sapiens, UniProt P10747)","CD28–CD80 binding, inhibitor, competitive ELISA",,together with: biotinylated CD80,18.9 µM
COc1ccc(C(=O)Nc2ccc(-c3nc4ccccc4[nH]3)cc2)cc1,Moesin with CD44,"MSN-CD44 interaction, inhibitor, TR-FRET",,together with: CD44,8 µM
OC(CN1CCNCC1)Cn1c2ccccc2c2cc(Cl)ccc21 (centres unmarked),"BAX (Homo sapiens, UniProt Q07812)","membrane permeabilization, inhibitor",ANTS/DPX liposomes,"400 nM BAX, together with: 30 nM tBID",7.7 µM
CN(C)C(=O)Cn1cc(-c2ccc(-c3cncc4ccncc34)cc2)cn1,"CDK19 (Homo sapiens, UniProt Q9BWU1)","enzyme activity, SelectScreen",,,< 1 µM
N#Cc1cnc(Nc2nc3ccccc3o2)nc1C1CCCCC1,"Grm5 (Rattus norvegicus, UniProt P31424)","calcium mobilization, negative allosteric modulator",,together with: glutamate EC80,0.216 ± 0.071 µM
Cc1nc(N)sc1-c1csc(N(C)c2ccc(O)cc2)n1,"Protein-lysine 6-oxidase (Homo sapiens, UniProt P28300)","LOX activity, inhibitor",MDA-MB-231,,3.5 µM
O=C(O)CCC(C(=O)/C=C/c1ccc(O)c(OC(F)(F)F)c1)C(=O)/C=C/c1ccc(O)c(OC(F)(F)F)c1,"Amyloid-beta precursor protein, Aβ aggregates (APP, Homo sapiens, UniProt P05067)","binding, thioflavin T competition",,,0.82 µM
O=C(Nc1ccc(-c2nc3ccc(NC(=O)N4CCOCC4)cc3s2)cc1)N1CCOCC1,Moesin with CD44,"MSN-CD44 interaction, inhibitor, TR-FRET",,together with: CD44,> 100 µM
O=C(NC1CCN(Cc2cc(Cl)c3cccnc3c2O)CC1)c1cccc(Cl)c1,"KCNJ13 (Homo sapiens, UniProt O60928, M125R)","potassium current, inhibitor, whole-cell patch clamp",,holding potential -120 mV,0.86 µM
Cc1ccc(C(NS(=O)(=O)c2cccs2)C(=O)Nc2ccc(Cl)cc2)cc1 (centres unmarked),"Uracil nucleotide/cysteinyl leukotriene receptor, long isoform (GPR17, Homo sapiens, UniProt Q13304)","calcium mobilization, antagonist",1321-N1,,8.66 ± 0.54 µM
COc1cc(C(=O)N2CCC(N3CCN(C)CC3)CC2)ccc1Nc1ncc2c(n1)N(C(C)C)c1ccccc1C(=O)N2C,"MAPK7 (Homo sapiens, UniProt Q13164)",kinase activity,,,0.125 ± 0.026 µM
CC1CN([C@H](C)CO)C(=O)c2cc(NC(=O)Cc3cn(C)c4ccccc34)ccc2OC1CN(C)S(=O)(=O)c1ccc(Cl)cc1 (some centres unmarked),"Scavenger receptor class B member 1 (Mus musculus, UniProt Q61009)","DiI-HDL uptake, inhibitor",ldlA[mSR-BI] cells,DMSO stock solution,8.9 µM
Cc1cc(-c2ccc(C3(c4ccc(Cl)cc4)CCNCC3)cc2)ccn1,"LATS1 (Homo sapiens, UniProt O95835)","kinase activity, inhibitor, radiometric HotSpot",,together with: ATP 10 µM,> 10 µM
NC(=O)c1cn(-c2ccc(F)cc2)c2ccc(CN3CCN(CC(F)(F)F)CC3)cc2c1=O,Grm2,"calcium mobilization, negative allosteric modulator",,,0.612 µM
CN1CC[C@H](c2c(O)cc(O)c3c(=O)cc(-c4ccc(Cl)cc4)oc23)[C@H](O)C1,"Cyclin-dependent kinase 2, part with cyclin A (CDK2, Homo sapiens, UniProt P24941)","enzyme activity, inhibitor",,"with cyclin A, together with: histone H1 substrate",0.287 µM
NC(N)=NN=C1CCCc2cc(NC(=O)c3cc4cccc([N+](=O)[O-])c4[nH]3)ccc21,"CHEK2 (Homo sapiens, UniProt O96017)","kinase activity, inhibitor, IMAP fluorescence polarization",,,0.00017 ± 1e-05 µM
CCOC(=O)c1c(C)oc2c1C(=O)c1nc(Oc3cccnc3)ccc1C2=O,"TDP2 (Homo sapiens, UniProt O95551)","enzyme activity, inhibitor",,together with: 5'-phosphotyrosyl oligonucleotide substrate,> 111 µM
NC(=O)c1cn(-c2ccc(F)cc2)c2ccc(NCCc3ccncc3)cc2c1=O,Grm2,"calcium mobilization, negative allosteric modulator",,,0.376 µM
CC(=O)Nc1cc(Nc2cc(NC3CC3)n3ncc(C#N)c3n2)ccc1N(C)Cc1ccccc1,"CSNK2A2 (Homo sapiens, UniProt P19784)",inhibitor,,,0.094 µM
COc1nc(-c2ccccc2)n(-c2ccc(C#N)cc2)n1,"Prostaglandin G/H synthase 2 (Macaca mulatta, UniProt F7BWZ9)","PGE2 production, inhibitor, enzyme immunoassay",monkey whole blood,,0.2 ± 0.045 µM
CN1CC[C@H](c2c(O)cc(O)c3c(=O)cc(-c4ccccc4F)oc23)[C@H](O)C1,"SRC (Homo sapiens, UniProt P12931)",,,ATP at Km,> 10 µM
O=C(CCCCCn1c(=S)[nH]c2ccccc2c1=O)N1CCN(c2ccc(C(F)(F)F)cc2)CC1,ESR1,"reporter gene, antagonist",HEC-1 cells transfected with ERα,together with: estradiol 1 nM,4.4 µM
CN1CCN(Cc2ccc(NC(=O)c3cncc(C#Cc4cncc5ncccc45)c3)cc2C(F)(F)F)CC1,"Kinesin-1 heavy chain/ Tyrosine-protein kinase receptor RET (RET/KIF5B, Homo sapiens, UniProt P07949+P33176, G810S)","cell viability, inhibitor, CellTiter-Glo",Ba/F3 KIF5B-RET G810S,,0.0106 ± 0.00035 µM
Cc1ccc(S(=O)(=O)Oc2ccc(/C=C/c3c[nH]c4ccc(C#N)cc34)cc2)cc1,IDO1,"enzyme activity, inhibitor",,,> 100 µM
Cc1ccccc1C(C(=O)NC1CCCCC1)N(C(=O)Cn1ccnc1C)c1cccc([125I])c1 (racemic),"IDH1 (Homo sapiens, UniProt O75874, R132H)","enzyme activity, inhibitor",,"racemate, together with: alpha-ketoglutarate substrate",< 0.05 µM
O=C(CN1C(=O)C=CC1=O)N1CCN(c2cc(N3CCCC3)nc(N3CCCC3)n2)CC1,"Caspase-1 (CASP1, Homo sapiens, UniProt P29466)",inhibitor,,15 min preincubation,0.467 ± 0.116 µM
COc1ccc2nc3ccccc3c(SCCCN3C(=O)c4ccccc4C3=O)c2c1,"HASPIN (Homo sapiens, UniProt Q8TF76)","inhibitor, TR-FRET",,together with: histone H3 peptide,8.8 µM
NC1CCN(Cc2ccn3ncnc(Nc4cccc(-c5noc(C6CCCCC6)n5)c4)c23)CC1,"AAK1 (Homo sapiens, UniProt Q2M2I8)",,,,0.011 µM
C[C@H](N)c1nc2cc(-c3ccncc3F)sc2c(=O)[nH]1,"CDC7 (Homo sapiens, UniProt O00311)","enzyme activity, inhibitor",,,0.155 ± 0.00309 µM
COc1cccc(C(=O)Nc2ccc(-c3nc4ccccc4[nH]3)cc2)c1,Moesin with CD44,"MSN-CD44 interaction, inhibitor, TR-FRET",,together with: CD44,> 100 µM
COc1ccc2[nH]cc(/C=C/c3ccc(NS(C)(=O)=O)cc3)c2c1,IDO1,"enzyme activity, inhibitor",,,> 100 µM
O=C(NCc1ccc(-c2cnco2)cc1)[C@@H]1C[C@@H](O)CN1C(=O)c1cccc(Br)c1,"von Hippel-Lindau disease tumor suppressor, with elongin B, C (VHL, Homo sapiens, UniProt P40337)","binding, fluorescence polarization",,"10% DMSO, together with: FAM-HIF1α peptide tracer",39.5 ± 3.7 µM
